Measurements pooled from the literature.
Numbered parts are unrelated; each lists some results of a single study.

Study 1
Target: Interferon regulatory factor 5, full length, phosphomimetic (IRF5, Homo sapiens, UniProt Q13568-2, residues 1-514, S451D/S453D/S456D/S462D)
Method: protein-binding microarray
Molecule type: double-stranded DNA, one strand shown
Medium: in vitro
Concentration: 940 nM top
Setting: 60-bp whole probe
With: salmon DNA 0.4 mg/ml
Baseline: random background probes
Reading: higher = stronger binding
All sequences stand within: GCCTAGCAC … GTCTTGATTCGCTTGACGCTGCTG
Sequence	fitted relative affinity [z-score]
GACGAACAGAGTTTCGAGACGTGCTAG	2.07
CAAGTGATGTAGCTGGGAGCGTGCTAG	-0.403
CTAATTTTTACTTTCTGAATGTGCTAG	2.05
TTAGATTTTGGGTTTCGATTAGTGCTA	6.49
GACTGACTGGACTATCGGGACGTGCTA	-0.0757
GACGAACTGGGGACTGGTGACGTGCTA	0.0895
GACGATTTCGGGACTGTAGACGTGCTA	0.159
TTAGGTATCGGGTTTTGGTTAGTGCTA	5.95
TCACCATTATATTTTAAACTGTGCTAG	1.08
TTAGGTCTCCTTATCCTTAAGTGCTAG	0.528
ATTGCTTTCTCTTTCACTGCGTGCTAG	2.66
TTAGAACTGAGTATCGATCAGTGCTAG	3.87
CCATCTCTGCTCCTTCTGACAGTGCTA	0.836
CTAGGACTGGACACTGGGTTAGTGCTA	-0.39
TCATCTTTACTTCACTCACTGTGCTAG	1.64
TTAGGTATCGACACTGCGTTAGTGCTA	4.71
TTAGGACTGGGTTTCGGTTAGTGCTAG	6.63
GAAGGTATCCTTCTCCTGACGTGCTAG	0.22
TTAGGTCTCTTTTTCCTTTAGTGCTAG	0.956
GACGGACTGGGGTGTCGGGACGTGCTA	-0.0311
TTAGGTTTCGGGACTGGGTTCGTGCTA	8
TAAGAACTGAGTCTCGATTAGTGCTAG	3.44
GACGAACTGCGACTGGAGACGTGCTAG	-0.737

Study 2
Target: Sal-like protein 4, full length isoform B (SALL4, Homo sapiens, UniProt Q9UJQ4-2, residues 1-616)
Method: universal PBM
Molecule type: double-stranded DNA, one strand shown
Medium: in vitro
Concentration: not given
Setting: 8-mer, flanks averaged, mean of replicates
Reading: higher = stronger binding
Sequence	E-score
CGAGAGCC	-0.273
CCGCATGA	-0.134
AATGAGAC	-0.0884
GTCCGCAA	-0.143
GAGATGGA	-0.204
GACGCCCA	-0.164
CGACCGCC	-0.289
CAGATTCC	-0.274
ACCACTAA	0.0199
AGCAAACA	0.0388
GCAGAGAA	-0.0393
CCAGTAAA	0.182
ATTCAATC	0.216
CATACCAG	0.0279
CATTTGGG	-0.042
CCTTAACG	-0.0919
ATTAGCCG	-0.0594
GGTCGAAC	-0.183
TGCCCCCA	0.0333
ATGGATAG	0.04
CCTTTGGA	-0.217
AAGGGAGT	-0.156
AGGCACAG	-0.0363

Study 3
Target: Histone acetyltransferase KAT6A, winged helix 2, GST fusion (KAT6A, Homo sapiens, UniProt Q92794, residues 85-181)
Method: protein binding microarray
Molecule type: double-stranded DNA, one strand shown
Medium: in vitro
Concentration: not given
Setting: 8-mer, flanks averaged, mean of 2 arrays, mostly near background
Baseline: not given
Reading: higher = stronger binding
Construct (chain): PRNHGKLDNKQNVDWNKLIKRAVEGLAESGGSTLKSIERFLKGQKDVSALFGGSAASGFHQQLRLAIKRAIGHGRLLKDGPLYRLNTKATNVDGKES
Sequence	E-score
TCCTACGA	-0.101
ACTCTTGA	-0.0669
AAAAGGCC	-0.0397
CGCTACAC	-0.0895
CACCTACC	-0.13
TGCTGACA	0.137
CGATTCCA	0.113
GCTGGGAA	0.146
ATCGCCAT	0.0762
GTGGGTGA	0.0572
GGGTGCGA	-0.126
CAACGTCG	-0.0621
ATCGACAC	-0.128
GCCGAAGA	0.15
AAAGGCGC	0.0343
CGAAGCTC	0.116
AGATGCCG	-0.00877
GGGAATTA	-0.0301
CTATGACC	-0.0912
AGCTATGA	-0.118

Study 4
Target: RNA binding protein fox-1 homolog 2, RRM domain, GST-SBP tag (RBFOX2, Homo sapiens, UniProt O43251-10, residues 100-194)
Method: RNA Bind-n-Seq
Molecule type: RNA
Medium: in vitro
Concentration: 365 nM
Setting: natural RNA segment, single round, ends assumed
Baseline: no-protein control
Reading: higher = stronger binding
All sequences stand within: GGGAGUUCUACAGUCCGACGAUC … UGGAAUUCUCGGGUGCCAA
Construct (chain): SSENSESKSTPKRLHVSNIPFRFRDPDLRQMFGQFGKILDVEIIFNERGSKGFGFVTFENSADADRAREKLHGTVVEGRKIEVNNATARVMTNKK
Sequence	RBNS enrichment (R)
ACCUUCAAUACUCAGAAAUGAUGGAUUCCUCCAAGGAGUCCUUUACUAGCCUAAACAUUCUCAAAUGUUUGAGAUUCAAGUGAAUGGAAGGAAAACCACAUGCCUUUAAA	0.389
UAAAUUCAUUAUUUUUGUGACAGUAAUUUUGGUACUUGGAAGAGUUCAGAUGCCCAUCUUCUGCAGUUACCAAGGAAGAGAGAUUGUUCUGAAGUUACCCUCUGAAAAAU	0.469
UGUCAUUAAUUAUCAAUACUAACGAGUAUGUCAUUUUAAAACUUAGUAUUCUCUUUAAUGUUACAAGUUUUCUCCAUCCUGUUAAAUAAUAUUUAUAAUUAUUUUAACAG	0.885
AUAAGAAAUAGGUUUAUUUUUCCAGUGUAAAUUUCAGAAUUUAAAGAAAACUGGUUGUAGUUUACUAUUUUACCUACCUAAAAACAGAUGUGAUGGCUCUUUAAGAAUUG	0.415
UCUUUUAAAAAAAUCUGUGAAAUUAACAUGCUUGUGUAUAGCUUUCUAAUAUAUAUAAUAUUAUGGUAAUAGCAGAAGUUUUGUUAUCUUAAUAGCGGGAGGGGGGUAUA	0.847
UGUUUUGGUAGGAAAUCUUUAAGAUUGGCGGACGGAACAGGUAUUUUAGUGAGACACUUCUGAGUACUUGCUUUUUCCUUUGACUUCUAACCAACUAAAAGAGAAGGAGG	0.388
CUGGAAUAAUAAUGCCAUAUUGUAUUUUGCACACUGCUUUAUUUUCUAGAGGCUCUGGGAGCAAAUUACAUUCAUCACAUUACCUCUGCUCUCUCAAGAUUAAAGUCUUU	0.362
UUUUCCUCCUUUGUGUUAGGGGACAUAACAAGCUCUGCUGGGCUUGAGGGACCCAGACCAGGUGUCUGCAGUCAGCUCCUGAGACACAGCUGGCCGGCACAACAGGUGUU	0.509
CGUUGGCCACUCCGAGAGGUGGGCCAGUCUGUGGAUCAGAGAUGCACCACCAAGCCAAGGGAACCUGUGUCCGGUAUUCGAUACUGCGACUUUCUGCCUGGAGUGUAUGA	0.32
CACUAACAUUUUGGGAAGGAGAGGCACAUAACUUUUUUUAACAUUUGGUAACUAGGUUAUGGGCUCUACAUUGUCAGCUACUUGGGAUAUAUAUUUAAUUUUCUUAAAUU	0.387
AGACCCUGCCUGUAUUCAGAAAUGUGGAACAGAGAAAUGGUGGGCCAGGAGUGAAGGCAGAUUUAGGGAAAUAAACAUUGUGUGUUAAAUCUUUUACUGACCUGGGUUUU	0.748
GCAAUGUGGACUGUUUAGAAUUCUAACCAUUUAUGAUAUUCUGGCUGUCCAGGUGAGUGGAAAUUUUUGCAUAGAUUUGACUAGAUGAUUGGUGUAGGUGGCAGUGGAAC	3.98

Some of these lines once more (study 1):
Sequence	fitted relative affinity [z-score]
CAAGTGATGTAGCTGGGAGCGTGCTAG	-0.403
CTAATTTTTACTTTCTGAATGTGCTAG	2.05
TTAGATTTTGGGTTTCGATTAGTGCTA	6.49
GACTGACTGGACTATCGGGACGTGCTA	-0.0757
GACGAACTGGGGACTGGTGACGTGCTA	0.0895
GACGATTTCGGGACTGTAGACGTGCTA	0.159
TTAGGTATCGGGTTTTGGTTAGTGCTA	5.95
TCACCATTATATTTTAAACTGTGCTAG	1.08
TTAGGTCTCCTTATCCTTAAGTGCTAG	0.528
